Measurements collected from several papers.
Compare with care: the assays were run in different laboratories. Several values in a cell are separate wells, animals, samples, runs or records. Numbers after ± are the reported error.
Oprd1: Delta-type opioid receptor (Oprd1, Rattus norvegicus, UniProt P33533)
UniProt P33533, sequence (whole entry, looked up): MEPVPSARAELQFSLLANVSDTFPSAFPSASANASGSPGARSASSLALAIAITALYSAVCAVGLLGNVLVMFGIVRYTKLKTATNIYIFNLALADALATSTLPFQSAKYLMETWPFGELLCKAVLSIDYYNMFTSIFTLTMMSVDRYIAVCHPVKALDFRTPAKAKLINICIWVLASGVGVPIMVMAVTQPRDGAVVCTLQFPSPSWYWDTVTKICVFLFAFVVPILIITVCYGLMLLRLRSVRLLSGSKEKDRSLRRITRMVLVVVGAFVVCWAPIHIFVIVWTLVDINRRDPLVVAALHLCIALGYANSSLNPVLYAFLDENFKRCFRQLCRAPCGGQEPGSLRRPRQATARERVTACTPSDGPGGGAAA
PAL1 Y110F: PAL1 (Petroselinum crispum, UniProt P24481, Y110F)
FES: Tyrosine-protein kinase Fes/Fps (FES, Homo sapiens, UniProt P07332)
UniProt P07332, sequence (whole entry, looked up): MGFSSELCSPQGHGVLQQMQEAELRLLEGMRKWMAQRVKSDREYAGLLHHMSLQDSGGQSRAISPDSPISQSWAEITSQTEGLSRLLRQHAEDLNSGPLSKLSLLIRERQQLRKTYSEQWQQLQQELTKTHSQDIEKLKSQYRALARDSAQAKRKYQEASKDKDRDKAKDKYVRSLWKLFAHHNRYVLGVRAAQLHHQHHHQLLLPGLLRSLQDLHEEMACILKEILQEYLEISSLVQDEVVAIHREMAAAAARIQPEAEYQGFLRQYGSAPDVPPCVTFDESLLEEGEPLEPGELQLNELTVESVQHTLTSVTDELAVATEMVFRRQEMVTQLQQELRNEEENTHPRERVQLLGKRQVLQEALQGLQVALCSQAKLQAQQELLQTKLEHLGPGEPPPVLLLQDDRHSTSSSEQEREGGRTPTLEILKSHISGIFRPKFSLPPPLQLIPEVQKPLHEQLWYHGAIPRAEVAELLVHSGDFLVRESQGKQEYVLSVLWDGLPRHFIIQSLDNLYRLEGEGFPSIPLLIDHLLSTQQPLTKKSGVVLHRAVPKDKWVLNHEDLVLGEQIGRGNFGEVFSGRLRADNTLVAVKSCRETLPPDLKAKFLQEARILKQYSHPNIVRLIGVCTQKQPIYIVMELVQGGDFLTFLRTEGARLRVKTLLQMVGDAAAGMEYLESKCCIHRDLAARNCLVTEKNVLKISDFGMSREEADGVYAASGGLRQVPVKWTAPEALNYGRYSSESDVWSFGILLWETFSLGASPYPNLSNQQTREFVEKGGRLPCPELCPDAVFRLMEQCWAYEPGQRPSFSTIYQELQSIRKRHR
UniProt Q9UH17, sequence (whole entry, looked up): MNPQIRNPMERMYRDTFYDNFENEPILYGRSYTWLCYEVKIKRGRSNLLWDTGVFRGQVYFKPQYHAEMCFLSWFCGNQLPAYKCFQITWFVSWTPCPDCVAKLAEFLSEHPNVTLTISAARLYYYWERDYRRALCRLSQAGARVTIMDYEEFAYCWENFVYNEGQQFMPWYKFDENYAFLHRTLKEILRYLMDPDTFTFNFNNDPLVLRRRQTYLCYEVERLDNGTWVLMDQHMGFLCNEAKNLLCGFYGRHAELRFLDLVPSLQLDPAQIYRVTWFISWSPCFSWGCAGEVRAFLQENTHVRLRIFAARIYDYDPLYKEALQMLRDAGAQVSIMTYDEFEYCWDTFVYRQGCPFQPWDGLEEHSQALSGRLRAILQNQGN
UniProt P35348, sequence (whole entry, looked up): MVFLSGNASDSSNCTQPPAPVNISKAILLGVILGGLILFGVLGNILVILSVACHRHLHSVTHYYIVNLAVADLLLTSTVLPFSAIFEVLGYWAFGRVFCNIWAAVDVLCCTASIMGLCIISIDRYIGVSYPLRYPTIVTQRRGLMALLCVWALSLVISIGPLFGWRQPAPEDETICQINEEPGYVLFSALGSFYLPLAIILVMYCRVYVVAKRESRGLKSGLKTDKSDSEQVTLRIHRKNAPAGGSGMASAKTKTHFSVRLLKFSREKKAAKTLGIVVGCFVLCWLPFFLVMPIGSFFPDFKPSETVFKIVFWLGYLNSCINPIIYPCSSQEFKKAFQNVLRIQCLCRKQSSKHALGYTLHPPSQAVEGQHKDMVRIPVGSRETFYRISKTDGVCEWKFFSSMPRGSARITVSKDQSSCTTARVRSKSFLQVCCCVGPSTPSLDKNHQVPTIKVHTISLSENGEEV
UniProt P43235, sequence (whole entry, looked up): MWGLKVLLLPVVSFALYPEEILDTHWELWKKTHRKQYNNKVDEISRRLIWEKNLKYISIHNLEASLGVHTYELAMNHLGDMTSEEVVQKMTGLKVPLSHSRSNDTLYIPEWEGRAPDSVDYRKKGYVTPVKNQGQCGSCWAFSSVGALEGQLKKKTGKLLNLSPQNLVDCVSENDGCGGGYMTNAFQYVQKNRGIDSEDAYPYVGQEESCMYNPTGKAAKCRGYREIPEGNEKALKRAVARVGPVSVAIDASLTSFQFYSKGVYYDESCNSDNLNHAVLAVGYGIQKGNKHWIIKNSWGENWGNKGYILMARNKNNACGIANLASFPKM
UniProt O55137, sequence (whole entry, looked up): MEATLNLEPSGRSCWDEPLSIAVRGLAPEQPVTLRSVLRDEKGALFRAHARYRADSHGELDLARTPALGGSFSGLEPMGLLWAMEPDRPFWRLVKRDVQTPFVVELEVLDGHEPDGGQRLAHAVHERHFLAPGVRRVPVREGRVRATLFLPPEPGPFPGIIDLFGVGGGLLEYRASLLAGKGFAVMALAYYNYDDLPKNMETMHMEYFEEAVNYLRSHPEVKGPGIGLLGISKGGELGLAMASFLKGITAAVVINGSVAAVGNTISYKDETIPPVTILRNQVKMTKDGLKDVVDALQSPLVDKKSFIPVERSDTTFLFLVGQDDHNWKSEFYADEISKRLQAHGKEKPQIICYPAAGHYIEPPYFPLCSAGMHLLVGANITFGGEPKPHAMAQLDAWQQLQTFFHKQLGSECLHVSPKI
UniProt P10721, sequence (whole entry, looked up): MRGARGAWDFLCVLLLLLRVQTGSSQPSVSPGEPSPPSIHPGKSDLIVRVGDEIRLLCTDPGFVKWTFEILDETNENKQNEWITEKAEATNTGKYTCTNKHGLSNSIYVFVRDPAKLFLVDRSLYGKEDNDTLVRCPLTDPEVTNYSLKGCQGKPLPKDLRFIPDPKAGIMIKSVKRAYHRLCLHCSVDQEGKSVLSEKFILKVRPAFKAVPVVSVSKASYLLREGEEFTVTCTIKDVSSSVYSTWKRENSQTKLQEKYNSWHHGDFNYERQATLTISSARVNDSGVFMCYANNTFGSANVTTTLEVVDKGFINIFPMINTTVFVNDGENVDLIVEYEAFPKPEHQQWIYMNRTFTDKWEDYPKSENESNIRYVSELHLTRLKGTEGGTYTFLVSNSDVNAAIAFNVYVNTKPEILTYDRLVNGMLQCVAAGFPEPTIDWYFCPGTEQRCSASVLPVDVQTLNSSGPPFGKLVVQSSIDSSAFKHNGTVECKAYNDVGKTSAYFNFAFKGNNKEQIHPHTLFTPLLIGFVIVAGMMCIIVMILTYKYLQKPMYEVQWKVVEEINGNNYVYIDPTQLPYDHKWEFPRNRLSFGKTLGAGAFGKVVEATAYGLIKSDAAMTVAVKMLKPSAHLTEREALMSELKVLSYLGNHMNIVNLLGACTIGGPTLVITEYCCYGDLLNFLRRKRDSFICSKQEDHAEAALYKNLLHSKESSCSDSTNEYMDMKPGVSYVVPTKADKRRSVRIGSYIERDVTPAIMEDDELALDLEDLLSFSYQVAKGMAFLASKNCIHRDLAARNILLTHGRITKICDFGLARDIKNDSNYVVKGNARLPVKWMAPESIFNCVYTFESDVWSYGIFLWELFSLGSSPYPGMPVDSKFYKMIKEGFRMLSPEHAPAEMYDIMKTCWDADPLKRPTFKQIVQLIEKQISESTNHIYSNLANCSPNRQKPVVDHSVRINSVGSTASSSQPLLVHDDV
UniProt P21554, sequence (whole entry, looked up): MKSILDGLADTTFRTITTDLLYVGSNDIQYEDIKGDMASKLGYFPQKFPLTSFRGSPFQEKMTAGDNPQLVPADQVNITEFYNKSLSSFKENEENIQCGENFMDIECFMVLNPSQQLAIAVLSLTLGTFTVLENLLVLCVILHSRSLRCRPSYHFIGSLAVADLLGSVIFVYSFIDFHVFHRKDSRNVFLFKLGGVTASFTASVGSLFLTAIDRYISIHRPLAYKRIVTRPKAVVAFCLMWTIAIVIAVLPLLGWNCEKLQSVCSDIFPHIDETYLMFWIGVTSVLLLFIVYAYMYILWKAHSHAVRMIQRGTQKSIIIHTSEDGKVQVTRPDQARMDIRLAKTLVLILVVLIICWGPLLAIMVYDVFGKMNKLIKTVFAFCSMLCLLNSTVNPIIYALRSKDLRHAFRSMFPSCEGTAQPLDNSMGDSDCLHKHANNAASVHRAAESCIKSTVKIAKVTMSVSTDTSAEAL
UniProt P08172, sequence (whole entry, looked up): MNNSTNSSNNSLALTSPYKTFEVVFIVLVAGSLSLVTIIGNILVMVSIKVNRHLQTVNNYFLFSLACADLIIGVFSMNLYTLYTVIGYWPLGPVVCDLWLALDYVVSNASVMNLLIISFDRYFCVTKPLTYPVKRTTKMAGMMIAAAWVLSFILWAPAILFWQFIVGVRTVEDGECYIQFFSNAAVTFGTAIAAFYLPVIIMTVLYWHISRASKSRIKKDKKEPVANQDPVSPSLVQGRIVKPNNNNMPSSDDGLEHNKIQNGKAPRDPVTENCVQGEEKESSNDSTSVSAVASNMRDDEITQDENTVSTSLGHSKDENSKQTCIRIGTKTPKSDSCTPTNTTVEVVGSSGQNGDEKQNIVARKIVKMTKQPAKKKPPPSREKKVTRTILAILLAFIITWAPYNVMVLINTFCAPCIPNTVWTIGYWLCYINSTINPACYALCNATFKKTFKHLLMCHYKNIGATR
UniProt O95832, sequence (whole entry, looked up): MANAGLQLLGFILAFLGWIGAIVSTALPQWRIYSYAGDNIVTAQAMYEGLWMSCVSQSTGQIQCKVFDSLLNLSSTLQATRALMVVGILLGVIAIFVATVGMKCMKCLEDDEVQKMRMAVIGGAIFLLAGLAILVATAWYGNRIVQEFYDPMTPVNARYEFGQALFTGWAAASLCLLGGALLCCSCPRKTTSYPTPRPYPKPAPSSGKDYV

For `CN(C)CCCSC(=S)N1CCN(C(=O)/C=C/c2coc3ccccc3c2=O)CC1`, the MST response was 1.06 a.u. (Nucleoprotein (N, Tomato spotted wilt virus, UniProt P25999, R94A/Y184A); binding, microscale thermophoresis; 62.5 µM; dose series).
`CC(C)CC(O)(CC(C)C)c1cn(C(=O)N2CCCC2)nn1`: “ratio of ratios” 1.25 (Acot1 (Mus musculus, UniProt O55137); enzyme activity, inhibitor; mouse, brain; i.p., 0.8 mg/kg, 4 h, protein level; relative to: vehicle).
For `CC[C@H](C)[C@@H]([C@@H](CC(=O)N1CCC[C@H]1[C@H](OC)[C@@H](C)C(=O)N[C@H](C)[C@@H](O)c1ccccc1)OC)N(C)C(=O)[C@@H](NC(=O)[C@H](C(C)C)N(C)C(=O)OCc1ccc(NC(=O)[C@H](CCCNC(N)=O)NC(=O)[C@@H](NC(=O)CCCCCN2C(=O)CC(SC[C@H](NC(=O)[C@H](CC(=O)O)NC(=O)[C@H](Cc3ccc(O)cc3)NC(=O)[C@H](Cc3c[nH]c4ccccc34)NC(=O)[C@@H](N)CCCNC(=N)N)C(=O)O)C2=O)C(C)C)cc1)C(C)C` (stereo partly drawn), the half-life was 1.75 ± 0.09 h (PBS).
For `CC(C)(C)C(=O)OCOP(=O)(OCOC(=O)C(C)(C)C)C1CCCN(O)C1=O` (stereo not drawn), the log GI50 was -6.25 log M (NCI-H460).
`COc1ccccc1-c1n[nH]c2nc(N[C@H]3CC[C@H](NS(=O)(=O)CC(C)C)CC3)ncc12` gave a remaining binding of 13% (cdc2-related kinase 12 (Leishmania donovani, UniProt A0A3S7WQK2); kinobead competition pull-down; Leishmania donovani, cell extract; 0.4 µM; relative to: vehicle).
`O=C(O)c1cccc(CP(=O)(O)O)n1` gave a kon of 5500 ± 1500 M⁻¹ s⁻¹ (Beta-lactamase L1 (Stenotrophomonas maltophilia, UniProt P52700); enzyme activity, inhibitor; with: nitrocefin).
`Cc1sc2c(c1C)C(c1ccc(Cl)cc1)=NC(CC(=O)OC(C)(C)C)c1nnc(C)n1-2` (stereo not drawn) has a remaining binding of 119% (SLC6A4 (Homo sapiens, UniProt P31645); ligand displacement, radioligand; 1 µM).
The inhibition of `O=C(O)c1ccccc1/C=N/Nc1nc(-c2ccccc2Cl)cs1` is reported as 0.85% (AKT1 (Homo sapiens, UniProt P31749); enzyme activity, inhibitor; 1 µM).
The tissue uptake of `CC[C@H](C)[C@H](NC(=O)[C@H](CCCCN)NC(=O)CNC(=O)[C@H](CC(C)C)NC(=O)[C@H](Cc1ccccc1)NC(=O)[C@H](CCCCN)NC(=O)[C@H](CO)NC(=O)[C@H](Cc1ccccc1)NC(=O)[C@H](Cc1c[nH]c2ccccc12)NC(=O)[C@H](CCC(N)=O)NC(=O)[C@@H](NC(=O)[C@H](Cc1ccccc1)NC(=O)CCCCCNC(=O)CN1CCN(CC(=O)O)CCN(CC(=O)O)CCN(CC(=O)O)CC1)C(C)C)C(=O)N[C@@H](CCC(=O)O)C(=O)N1CCC[C@H]1C(=O)N[C@@H](CC(=O)O)C(=O)N[C@H](C(=O)N[C@@H](CO)C(=O)N[C@@H](CCC(N)=O)C(=O)N[C@H](C(=O)N[C@@H](CCC(N)=O)C(=O)N[C@@H](CC(=O)O)C(=O)N1CCC[C@H]1C(=O)N[C@@H](CC(N)=O)C(=O)N[C@@H](CC(=O)O)C(=O)N[C@@H](CCC(N)=O)C(=O)N[C@@H](Cc1ccc(O)cc1)C(=O)N[C@@H](CCC(=O)O)C(=O)N1CCC[C@H]1C(=O)N[C@@H](Cc1ccccc1)C(=O)O)C(C)C)C(C)C` [copper-64 labelled] is reported as 1.5 ± 0.1 %ID/g (C57BL/6 mice, pancreas; with: LPS 3 mg/kg intratracheal).
`CC(C)CCCC(C)C1CCC2C3CCC4CC(OC5OC(C)C(OC6OC(C)C(OC7OC(C)C(OC8OC(C)C(OS(=O)(=O)O)C(OS(=O)(=O)O)C8OS(=O)(=O)O)C(OS(=O)(=O)O)C7OS(=O)(=O)O)C(OS(=O)(=O)O)C6OS(=O)(=O)O)C(OS(=O)(=O)O)C5OS(=O)(=O)O)CCC4(C)C3CCC12C` (stereo not drawn): “relative inhibitory activity” ~3 fold (Heparanase (HPSE, Homo sapiens, UniProt Q9Y251); enzyme activity, inhibitor; concentration not given; relative to: 10).
For `O=C1NC2(CC2)COc2ncc(F)cc2[C@H]2COCCN2c2ccn3ncc1c3n2`, “serum total protein” read 58 ± 0.7 g/L (Sprague-Dawley rat, male, serum; oral, 20 mg/kg/day, end of treatment, 4-week subacute toxicity).
With `CCCCC1CNCCN1CC1CCCN1CC(Cc1ccc2ccccc2c1)N1CCN(CCCC2CCCC2)C(C(C)O)C1` (stereo not drawn) the remaining binding was 81.3% (Oprd1; radioligand binding; rat brain membranes; 500 nM, pH 7.5, 25 °C, with: 2 nM [3H]DPDPE).
`CCOC(=O)[C@@H]1Cc2c(cc([N+](=O)[O-])cc2[N+](=O)[O-])[C@H](O)[C@]12C(=O)Nc1ccc(Br)cc12` gave a remaining binding of 55% (ALK (Homo sapiens, UniProt Q9UM73); binding, competition with immobilised ligand; 0.1 µM).
`Nc1ccc(/C=C/C(=O)N2CCc3c(oc4c(-c5ccc(F)cc5)cc(-c5ccc(C(=O)N6CCC(F)(F)CC6)cn5)cc34)C2)cn1` gave a remaining binding of 100% (KIT (Homo sapiens, UniProt P10721); binding, competition with immobilised ligand; 1 µM).
With `CS(C)(=O)=Nc1ccc(-c2ccc(-c3nc4cc(O[C@@H]5CO[C@H]6[C@@H]5OC[C@H]6O)[nH]c4cc3F)cc2)cc1` the inhibition was -6% (Neuronal acetylcholine receptor; alpha4/beta2 (Homo sapiens, UniProt P17787+P43681); ligand displacement, radioligand; 10 µM).
`COC(=O)[C@@H](NC(=O)c1nn(Cc2ccc(F)cc2)c2cc(OCCCCNC(N)=O)ccc12)C(C)(C)C` has a maximal efficacy of 118% (Cannabinoid receptor 1, with Gi2 (CNR1, Homo sapiens, UniProt P21554); GTP turnover, agonist, item: Gi2 Gα subtype).
The remaining binding of `OC[C@H]1CNCCN1C[C@@H]1CCCN1C[C@H](CC1CCCCC1)N1CCN(CCCC2CCCC2)[C@H](Cc2ccc(O)cc2)C1` is reported as 91.8% (Oprd1; radioligand binding; rat brain membranes; 500 nM, pH 7.5, 25 °C, with: 2 nM [3H]DPDPE).
The EC50 of `O=C(Cc1ccc(OCc2ccccc2)cc1)NC1(C(=O)O)CCN(C(=O)c2ccc(-c3cccc(Cl)c3)cc2)CC1` is reported as > 10 µM (Probable G-protein coupled receptor 34 (Homo sapiens, UniProt Q9UPC5); β-arrestin recruitment, agonist).
For `C=C(c1ccccc1)[C@H](N)P(=O)(O)O`, the -TΔS was -0.5 kcal/mol (PAL1 Y110F; binding, ITC).
The Hill slope of `CC(C)C[C@H](NC(=O)[C@H]1O[C@@H]1C(=O)O)C(=O)NCCCCN=C(N)N` is reported as -1.54 (Cathepsin K (CTSK, Homo sapiens, UniProt P43235)).
With `CCCC[C@H]1CNCCN1C[C@@H]1CCCN1C[C@@H](Cc1ccc2ccccc2c1)N1CCN(CCc2ccc(Cl)c(Cl)c2)[C@H]([C@H](C)CC)C1` the remaining binding was 88.4% (Oprd1; radioligand binding; rat brain membranes; 500 nM, pH 7.5, 25 °C, with: 2 nM [3H]DPDPE).
`Cc1cc(C(=O)Nc2nc3cccc(C)c3n2[C@H]2CCCCN(C(=O)/C=C/CN(C)C)C2)ccn1`: “cells in sub-G0 phase” 3.56% (Trypanosoma brucei; propidium iodide flow cytometry; bloodstream form; concentration not given, 24 h).
`O=C(N1CCCCC1)n1ccnn1` gave an activity ratio of 1.93 (Lipe (Mus musculus, UniProt P54310); enzyme activity, inhibitor, competitive ABPP-SILAC; mouse T-cells; concentration not given, 4 h, treated in situ; relative to: DMSO).
`N[C@H](Cc1ccccc1)P(=O)(O)O` has a ΔH of -7.3 kcal/mol (PAL1 Y110F; binding, ITC).
For `C=CC(=O)Nc1cc(-c2ccc(C(=O)N3CCCC(O)(CC)C3)cc2)ccc1F` (stereo not drawn), the adducted protein was 80% and 100% (DNA dC->dU-editing enzyme APOBEC-3B, C-terminal domain (Homo sapiens, UniProt Q9UH17); covalent adduct, intact protein MS, item: mass +397 Da adduct of 25735 Da; 500 µM, 5 h, 20-fold molar excess).
The reactivity ratio of `C#CCCCCOc1ccc2c(c1)CCCN2C(=O)CCl` is reported as 1.42 (Claudin-1 (CLDN1, Homo sapiens, UniProt O95832); mass spectrometry profiling, item: CLDN1; H460 cell lysate; 100 µM over 10 µM, UniProt O95832; relative to: high over low concentration).
`CC(C)[C@H]1NC(=O)C[C@H]2/C=C/CCSSC[C@@H](NC1=O)C(=O)N[C@H](Cc1cccc3ccccc13)C(=O)NCC(=O)O2` gave an inhibition of 5.8% (SPHK2 (Homo sapiens, UniProt Q9NRA0); enzyme activity, inhibitor; 10 µM).
`CC[C@H](C)[C@H](NC(=O)[C@H](CO)NC(=O)[C@H](Cc1ccc(O)cc1)NC(=O)[C@H](Cc1ccc(O)cc1)NC(=O)[C@H](CC(N)=O)NC(=O)CNC(=O)[C@H](CO)NC(=O)[C@H](Cc1ccc(O)cc1)NC(=O)[C@H](CO)NC(=O)[C@H](CO)NC(=O)[C@H](CC(N)=O)NC(=O)COCCOCCNC(=O)CN1CCN(CC(=O)O)CCN(CC(=O)O)CCN(CC(=O)O)CC1)C(=O)N[C@@H](CC(C)C)C(N)=O` [copper-64 labelled] gave a tissue uptake of 14 %ID/mL (dynamic PET; KPC mouse Ptf1a-CreER tdTomato, metastases; intravenous, 4.6 MBq/mouse, 17.5 min, 84 d after tamoxifen).
With `N[C@H](C(=O)N1CCCC1)C1CCN(c2nccc3c(-c4ncc(Cl)cc4Cl)cccc23)CC1` the response was 5% (ADRA1A (Homo sapiens, UniProt P35348); functional response, agonist; 10 µM).
The activity of `Cc1cc(-c2ccc3ccccc3c2)nnc1NCCN1CCN(C)CC1` is reported as 21% (CHRM2 (Homo sapiens, UniProt P08172); antagonist; 10000 nM; relative to: control).
`CN(C)[C@H]1C[C@@]23CC[C@@]4(O2)C(=CC[C@]2(C)[C@@H](c5ccc6ccncc6c5)CC[C@H]24)C=C3[C@@H](O)[C@@H]1O` gave an inhibition of -5.6% (FES; ATP probe labelling, inhibitor, KiNativ profiling; 0.1 µM).
`Cc1ccc(N2CC3CCC(C2)N3C)cc1C(=O)N[C@H](C)c1cc(-c2cnn(C)c2)nc2ccccc12` has a remaining activity of 103% (USP15 (Homo sapiens, UniProt Q9Y4E8); enzyme activity; 10 µM, 0.5 h).
The specific binding of `O=C(O)c1ccc(-c2nc(-c3ccccc3Cl)c3sccn23)cc1` is reported as 112% and 128% (Androgen receptor (AR, Homo sapiens, UniProt P10275); radioligand binding, safety screen panel; 10 µM; relative to: control).
For `Cc1nc2cccc(OCC(C)(C)C(=O)NC(C)C)c2c(N)c1C(=O)[O-].[Na+]`, “revertant colonies per plate” read 10 ± 2 (Salmonella typhimurium; TA1535; 5.0 mg per plate, without S9, plate incorporation).
For `C[C@H](NCc1ccc(-c2ccc(C(F)(F)F)cc2)cc1)C(N)=O`, the inhibition was 6% (ERBB4 (Homo sapiens, UniProt Q15303); cell-free assay, competition with immobilised ligand; 1 µM).
The -TΔS of `C=CC(=O)NC[C@H](NC(=O)[C@H](CC1CCCCC1)NC(=O)[C@H](CCC(N)=O)NC(C)=O)C(=O)N[C@@H](CC(C)C)C(=O)N[C@@H](Cc1ccccc1)C(=O)O` is reported as 2.3 kcal/mol (Beta sliding clamp (Escherichia coli, UniProt P0A988); binding, isothermal titration calorimetry; pH 7.4, 22 °C).
With `O=C1NC(=O)c2c1c1cc(F)c[n+]3c1c1c2c2cc(O)ccc2[n]1[Ru-4]312([N]=C=S)[S+]3CC[S+]1CC[S+]2CC3` (stereo not drawn) the remaining activity was 69% (FES; enzyme activity; 100 nM, human enzyme, with: 10 µM ATP; relative to: untreated).
With `C[C@@H]1COCCN1c1nc(NCc2cccnc2C(F)(F)F)c2cccnc2n1` the IC50 was > 100 µM (ACHE (Homo sapiens, UniProt P22303); binding; CEREP panel).
With `CCCC[C@H](NC(=O)CN1CCC(NC(=O)CN2CCN(CC(N)=O)CCN(CC(N)=O)CCN(CC(N)=O)CC2)CC1)C(=O)N[C@H]1CC(=O)NCCCC[C@@H](C(N)=O)NC(=O)[C@H](Cc2c[nH]c3ccccc23)NC(=O)[C@H](CCCNC(=N)N)NC(=O)[C@@H](Cc2ccccc2)NC(=O)[C@H](Cc2c[nH]cn2)NC1=O` [lead-203 labelled] the tissue uptake was 13.9 ± 2.84 %ID/g (male C57BL/6J mice B16-F10 tumour, kidneys; intravenous, 20 pmol, 2 h).
`COCC1CCCCN1C(=O)n1cc(C(O)(c2ccccc2)c2ccccc2)nn1` (stereo not drawn) has an activity ratio of 1.25 (Prolyl endopeptidase-like (Prepl, Mus musculus, UniProt Q8C167); enzyme activity, inhibitor, competitive ABPP-SILAC, item: Prepl; mouse T-cells; concentration not given, 4 h, treated in situ; relative to: DMSO).
The kcat of `COc1c(N2CC3CCCN(C(=O)OCc4cnc([N+](=O)[O-])s4)C3C2)c(F)cc2c(=O)c(C(=O)O)cn(C3CC3)c12` (stereo not drawn) is reported as 3.65 s⁻¹ (nfsB (Escherichia coli K-12, UniProt P38489); substrate; with: NADH 100 µM).
`Cc1ccc(NS(=O)(=O)c2c(C(=O)N3CCCCCC3)c(C)n(C)c2C)c(Cl)c1` has a viability of 97.4% and 99.1% (CV-1; African green monkey cells; 1.235 µM, 60 (unit not given)).

For quick reference, copied from above:
The Hill slope of `CC(C)C[C@H](NC(=O)[C@H]1O[C@@H]1C(=O)O)C(=O)NCCCCN=C(N)N` is reported as -1.54 (Cathepsin K (CTSK, Homo sapiens, UniProt P43235)).
`Cc1ccc(NS(=O)(=O)c2c(C(=O)N3CCCCCC3)c(C)n(C)c2C)c(Cl)c1` has a viability of 97.4% and 99.1% (CV-1; African green monkey cells; 1.235 µM, 60 (unit not given)).
